Experimental data of several laboratories.
Protocols differ between the studies behind these lines. Several values in a cell are separate wells, animals, samples, runs or records. ± marks the error that the study gave.
4'-phosphopantetheinyl transferase PptT: 4'-phosphopantetheinyl transferase PptT (Mycobacterium tuberculosis, UniProt O33336)
Chain of UniProt O33336 (whole entry, looked up): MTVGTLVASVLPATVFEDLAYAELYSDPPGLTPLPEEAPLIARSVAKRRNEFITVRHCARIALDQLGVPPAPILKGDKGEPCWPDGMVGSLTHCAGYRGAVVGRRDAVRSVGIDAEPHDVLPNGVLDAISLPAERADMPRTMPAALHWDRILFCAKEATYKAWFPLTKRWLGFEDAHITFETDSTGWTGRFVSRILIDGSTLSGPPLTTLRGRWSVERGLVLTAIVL
F2 gamma-thrombin: Prothrombin, gamma-thrombin (F2, Homo sapiens, UniProt P00734)
Chain of UniProt P21554 (whole entry, unmodified, looked up): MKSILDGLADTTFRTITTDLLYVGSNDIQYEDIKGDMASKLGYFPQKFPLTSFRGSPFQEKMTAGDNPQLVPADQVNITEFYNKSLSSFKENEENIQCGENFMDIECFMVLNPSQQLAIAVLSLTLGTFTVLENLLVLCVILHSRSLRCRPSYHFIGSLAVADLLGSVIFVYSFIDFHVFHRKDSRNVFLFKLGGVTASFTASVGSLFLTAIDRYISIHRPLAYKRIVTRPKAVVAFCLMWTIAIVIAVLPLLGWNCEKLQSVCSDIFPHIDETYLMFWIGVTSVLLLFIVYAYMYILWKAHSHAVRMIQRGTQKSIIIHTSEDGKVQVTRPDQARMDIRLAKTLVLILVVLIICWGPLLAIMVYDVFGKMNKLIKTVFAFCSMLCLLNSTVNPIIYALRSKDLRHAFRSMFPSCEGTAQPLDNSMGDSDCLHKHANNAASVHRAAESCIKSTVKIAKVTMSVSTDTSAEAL
Chain of UniProt P34972 (whole entry, unmodified, looked up): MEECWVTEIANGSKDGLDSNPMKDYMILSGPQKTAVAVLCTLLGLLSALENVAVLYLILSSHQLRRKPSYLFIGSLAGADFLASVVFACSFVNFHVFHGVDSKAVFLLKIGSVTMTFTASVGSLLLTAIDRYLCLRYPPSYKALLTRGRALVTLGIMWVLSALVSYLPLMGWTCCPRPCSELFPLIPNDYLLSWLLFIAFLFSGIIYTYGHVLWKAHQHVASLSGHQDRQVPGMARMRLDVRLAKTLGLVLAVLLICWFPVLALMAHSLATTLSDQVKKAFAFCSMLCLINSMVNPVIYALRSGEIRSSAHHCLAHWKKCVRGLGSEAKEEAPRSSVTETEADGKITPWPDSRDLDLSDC
Chain of UniProt P55212 (whole entry, looked up): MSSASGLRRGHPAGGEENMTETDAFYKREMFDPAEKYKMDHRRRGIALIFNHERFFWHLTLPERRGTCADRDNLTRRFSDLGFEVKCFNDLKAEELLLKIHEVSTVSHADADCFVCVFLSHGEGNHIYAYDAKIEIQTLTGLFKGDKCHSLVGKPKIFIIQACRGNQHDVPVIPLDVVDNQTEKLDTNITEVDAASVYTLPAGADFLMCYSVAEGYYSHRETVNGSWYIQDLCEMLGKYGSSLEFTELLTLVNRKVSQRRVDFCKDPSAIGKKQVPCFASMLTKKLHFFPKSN
Chain of UniProt P16389 (whole entry, looked up): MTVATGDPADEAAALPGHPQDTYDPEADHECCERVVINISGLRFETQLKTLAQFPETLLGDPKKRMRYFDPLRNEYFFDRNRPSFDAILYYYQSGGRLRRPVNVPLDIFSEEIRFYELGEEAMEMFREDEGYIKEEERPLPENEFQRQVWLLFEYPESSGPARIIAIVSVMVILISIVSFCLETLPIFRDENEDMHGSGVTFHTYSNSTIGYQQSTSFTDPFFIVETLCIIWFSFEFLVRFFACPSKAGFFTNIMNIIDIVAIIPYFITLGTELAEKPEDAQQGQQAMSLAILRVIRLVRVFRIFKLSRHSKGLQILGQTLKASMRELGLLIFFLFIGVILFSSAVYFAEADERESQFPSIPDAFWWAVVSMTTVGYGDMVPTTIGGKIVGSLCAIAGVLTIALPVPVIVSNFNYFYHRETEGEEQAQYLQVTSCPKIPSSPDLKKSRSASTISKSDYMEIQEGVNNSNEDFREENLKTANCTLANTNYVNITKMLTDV
Chain of UniProt P41595 (whole entry, looked up): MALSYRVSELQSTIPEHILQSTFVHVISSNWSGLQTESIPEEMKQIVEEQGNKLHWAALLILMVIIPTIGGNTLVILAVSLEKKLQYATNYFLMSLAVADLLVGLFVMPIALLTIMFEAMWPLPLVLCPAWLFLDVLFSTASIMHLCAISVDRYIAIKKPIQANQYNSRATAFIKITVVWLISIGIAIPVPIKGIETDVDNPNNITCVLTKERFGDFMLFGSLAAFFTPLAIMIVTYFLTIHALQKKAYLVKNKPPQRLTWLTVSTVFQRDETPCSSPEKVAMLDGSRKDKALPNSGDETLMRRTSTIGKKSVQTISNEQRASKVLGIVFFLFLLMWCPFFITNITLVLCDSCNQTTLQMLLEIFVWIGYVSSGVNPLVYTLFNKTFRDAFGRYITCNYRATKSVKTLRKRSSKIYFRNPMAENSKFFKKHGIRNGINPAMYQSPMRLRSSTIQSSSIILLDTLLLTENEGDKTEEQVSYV
Chain of UniProt P41143 (whole entry, unmodified, looked up): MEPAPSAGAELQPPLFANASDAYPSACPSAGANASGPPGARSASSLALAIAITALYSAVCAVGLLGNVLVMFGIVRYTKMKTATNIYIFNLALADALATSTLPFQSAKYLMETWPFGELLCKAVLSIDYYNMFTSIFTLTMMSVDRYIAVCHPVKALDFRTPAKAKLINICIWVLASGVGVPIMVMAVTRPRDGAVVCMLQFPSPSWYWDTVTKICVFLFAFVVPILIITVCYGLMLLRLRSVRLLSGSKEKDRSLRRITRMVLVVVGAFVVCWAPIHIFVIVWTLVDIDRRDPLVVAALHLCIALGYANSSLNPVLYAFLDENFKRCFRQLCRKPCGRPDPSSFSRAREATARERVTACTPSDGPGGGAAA
Chain of UniProt P41586 (whole entry, looked up): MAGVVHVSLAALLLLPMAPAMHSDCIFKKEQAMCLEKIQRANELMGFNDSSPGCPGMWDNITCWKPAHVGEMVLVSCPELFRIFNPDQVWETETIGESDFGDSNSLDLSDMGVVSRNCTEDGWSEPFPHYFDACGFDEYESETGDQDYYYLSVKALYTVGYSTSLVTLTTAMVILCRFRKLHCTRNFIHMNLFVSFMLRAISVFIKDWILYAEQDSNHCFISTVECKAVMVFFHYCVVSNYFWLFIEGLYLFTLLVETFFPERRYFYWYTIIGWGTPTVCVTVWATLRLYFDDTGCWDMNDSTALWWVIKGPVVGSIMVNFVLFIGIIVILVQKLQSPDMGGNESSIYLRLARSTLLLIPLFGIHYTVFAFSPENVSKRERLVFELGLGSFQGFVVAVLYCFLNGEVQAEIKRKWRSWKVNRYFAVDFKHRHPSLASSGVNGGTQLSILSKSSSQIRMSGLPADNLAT

Cc1nc2ccc(CN(C)c3ccc(C(=O)NC(C(=O)O)C(C)CC(=O)O)cc3)cc2c(=O)[nH]1 (stereo not shown) — IC50 (4'-phosphopantetheinyl transferase PptT; enzyme activity, inhibitor, FP): 58 nM
CCCCCn1cc(C(=O)c2cccc3c2CC(C)(C)C3)c2ccccc21 — EC50 (Cannabinoid receptor 2 (CNR2, Homo sapiens, UniProt P34972); cAMP, agonist): 1.58 nM
CC(C)CC(C(=O)N1CC2(CC1C#N)C(=O)Nc1ccccc12)N(C)C(=O)c1cc2c(F)cc(F)c(F)c2[nH]1 (stereo not shown) — IC50 (Caspase-6 (CASP6, Homo sapiens, UniProt P55212); enzyme activity, inhibitor): 2000 nM and 1990 nM
O=[N+]([O-])CC(c1ccco1)c1c(-c2ccccc2)[nH]c2ccccc12 (stereo not shown) — EC50 (Cannabinoid receptor 1 (CNR1, Homo sapiens, UniProt P21554, I245F); G protein activation, agonist, BRET): 210 nM
CC(C)C[C@H](NC(=O)[C@H](CC(=O)O)NC(=O)[C@H](CCC(N)=O)NC(=O)[C@H](CC(N)=O)NC(=O)[C@H](CCC(N)=O)NC(=O)[C@@H](N)CC(C)C)C(=O)N[C@H]1CSSC[C@@H](C(=O)N[C@@H](CCCCN)C(=O)NCC(=O)N[C@@H](CO)C(=O)N[C@@H](CCCCNC(=O)CCCC[C@@H]2SC[C@@H]3NC(=O)N[C@@H]32)C(N)=O)NC(=O)[C@H](Cc2ccccc2)NC(=O)[C@H](Cc2ccc(O)cc2)NC(=O)[C@H](CC(=O)O)NC(=O)[C@H](C)NC(=O)[C@H](Cc2ccc(O)cc2)NC(=O)[C@H](CC(=O)O)NC1=O — Kd (anti-HA antibody 12CA5 (mouse); biolayer interferometry; 30 °C): < 1 nM
Cc1ccc2c(C(C[N+](=O)[O-])c3cccs3)c(-c3ccccc3)[nH]c2c1 (stereo not shown) — EC50 (Cannabinoid receptor 1 (CNR1, Homo sapiens, UniProt P21554, L387A); G protein activation, agonist, BRET): 100 nM
CCCCCn1cc(C(=O)c2cccc3ccccc23)c2ccccc21 — EC50 (Cannabinoid receptor 2 (CNR2, Homo sapiens, UniProt P34972, V261L); cAMP, agonist, BRET): 1.32 nM
CC[C@H](C)[C@H](NC(=O)[C@@H]1CCCN1C(=O)[C@H](CCC(=O)O)NC(=O)[C@H](CCSC)NC(=O)CNC(=O)[C@H](CC(N)=O)NC(=O)CNC(=O)CNC(=O)[C@H](CCC(=O)O)NC(=O)CNC(=O)[C@H](CCCNC(=N)N)NC(=O)[C@H](CCC(N)=O)NC(=O)[C@H](Cc1ccc(O)cc1)NC(=O)[C@H](CC(C)C)NC(=O)[C@H](CCCCN)NC(=O)[C@@H]1CCCN1C(=O)[C@H](CCC(N)=O)NC(=O)[C@H](C)NC(=O)[C@@H](NC(=O)[C@H](CCC(=O)O)NC(=O)[C@H](C)NC(=O)[C@H](CCC(=O)O)NC(=O)[C@@H](NC(=O)[C@@H]1CCCN1C(=O)[C@@H](N)CCCCN)C(C)C)C(C)C)C(=O)N1CCC[C@H]1C(=O)N[C@@H](CCC(=O)O)C(=O)N[C@@H](CC(=O)O)C(=O)N[C@@H](Cc1ccc(OS(=O)(=O)O)cc1)C(=O)N[C@@H](CC(C)C)C(=O)N[C@@H](CC(N)=O)C(=O)N[C@@H](CCC(=O)O)C(=O)N[C@@H](C)C(=O)N[C@@H](CC(C)C)C(=O)N[C@@H](CC(N)=O)C(=O)N[C@@H](C)C(=O)O — Ki (F2 gamma-thrombin; pH 8): 20400 ± 1940 nM
O=C1CCc2c(ccc3ccccc23)O1 — Ki (Carbonic anhydrase (Vibrio cholerae serotype O1, UniProt Q9KMP6); enzyme activity, inhibitor, stopped-flow): 14300 nM
CN(Cc1cnc2[nH]ccc2c1)c1ccc(C(=O)NC(CCC(=O)O)C(=O)O)cc1 (stereo not shown) — IC50 (4'-phosphopantetheinyl transferase PptT; enzyme activity, inhibitor, fluorescence polarization; enzyme 100 nM): > 25000 nM
COc1ccccc1C(C[N+](=O)[O-])c1c(-c2ccccc2)[nH]c2ccccc12 (stereo not shown) — EC50 (Cannabinoid receptor 1 (CNR1, Homo sapiens, UniProt P21554, Y172A); G protein activation, agonist, BRET): 250 nM
CC[C@H](C)[C@H](NC(=O)[C@@H]1CCCN1C(=O)[C@H](CCC(=O)O)NC(=O)[C@H](CCSC)NC(=O)CNC(=O)[C@H](CC(N)=O)NC(=O)CNC(=O)CNC(=O)[C@H](CCC(=O)O)NC(=O)CNC(=O)[C@H](CCCNC(=N)N)NC(=O)[C@H](CCC(N)=O)NC(=O)[C@H](Cc1ccc(O)cc1)NC(=O)[C@H](CC(C)C)NC(=O)[C@H](CCCCN)NC(=O)[C@@H]1CCCN1C(=O)[C@H](CCC(N)=O)NC(=O)[C@H](C)NC(=O)[C@@H](NC(=O)[C@H](CCC(=O)O)NC(=O)[C@H](C)NC(=O)[C@H](CCC(=O)O)NC(=O)[C@@H](NC(=O)[C@@H]1CCCN1C(=O)[C@@H](N)CCCCN)C(C)C)C(C)C)C(=O)N1CCC[C@H]1C(=O)N[C@@H](CCC(=O)O)C(=O)N[C@@H](CC(=O)O)C(=O)N[C@@H](Cc1ccc(OS(=O)(=O)O)cc1)C(=O)N[C@@H](CC(C)C)C(=O)N[C@@H](CCC(N)=O)C(=O)O — Ki (F2 gamma-thrombin; pH 8): 3160 ± 97 nM
Cc1nc2ccc(CN(C)c3ccc(C(=O)NC(CCC(=O)O)C(=O)O)cc3)cc2c(=O)[nH]1 (stereo not shown) — IC50 (4'-phosphopantetheinyl transferase PptT; enzyme activity, inhibitor, FP): 72 nM
CC[C@H](C)[C@H](NC(=O)[C@H](CO)NC(=O)[C@H](CC(N)=O)NC(=O)[C@H](CC(C)C)NC(=O)[C@H](Cc1ccc(O)cc1)NC(=O)[C@H](CCCCN)NC(=O)[C@H](CCCCN)NC(=O)[C@@H](NC(=O)[C@H](C)NC(=O)[C@H](CCSC)NC(=O)[C@H](CCC(N)=O)NC(=O)[C@H](CCCCN)NC(=O)[C@H](CCCN=C(N)N)NC(=O)[C@H](CC(C)C)NC(=O)[C@H](CCCN=C(N)N)NC(=O)[C@@H](NC(=O)[C@H](Cc1ccc(O)cc1)NC(=O)[C@H](CC(N)=O)NC(=O)[C@H](CC(=O)O)NC(=O)[C@@H](NC(=O)[C@H](Cc1ccccc1)NC(=O)[C@@H](NC(=O)[C@H](C)NC(=O)[C@H](CC(=O)O)NC(=O)[C@H](CO)NC(=O)[C@@H](N)Cc1c[nH]cn1)C(C)C)[C@@H](C)O)[C@@H](C)O)C(C)C)C(=O)N[C@@H](CC(C)C)C(=O)N[C@@H](CC(N)=O)C(N)=O — EC50 (Pituitary adenylate cyclase-activating polypeptide type I receptor (ADCYAP1R1, Homo sapiens, UniProt P41586); G protein activation, agonist, BRET): 977 nM
CCCCCn1cc(C(=O)c2ccc3ccccc3c2)c2ccccc21 — EC50 (Cannabinoid receptor 1 (CNR1, Homo sapiens, UniProt P21554, F174A); G protein activation, agonist, BRET): 692 nM
C#CCN(Cc1ccc2nc(C)[nH]c(=O)c2c1)c1ccc(C(=O)N[C@@H](CCC(=O)OC)C(=O)OC)cc1 — IC50 (4'-phosphopantetheinyl transferase PptT; enzyme activity, inhibitor, fluorescence polarization; enzyme 100 nM): 14200 nM
CCN(CC)C(=O)c1ccc(C(c2cccc(O)c2)N2CC(C)N(Cc3ccccc3)CC2C)cc1 (stereo not shown) — Ki (Delta-type opioid receptor (OPRD1, Homo sapiens, UniProt P41143, A309I)): 0.19 ± 0.01 nM
C#CCN(Cc1ccc2nc(C)[nH]c(=O)c2c1)C(=O)NC(CSCC(N)=O)c1cccc([N+](=O)[O-])c1 (stereo not shown) — IC50 (4'-phosphopantetheinyl transferase PptT; enzyme activity, inhibitor, fluorescence polarization; enzyme 100 nM): 1100 nM
CC[C@H](C)[C@@H]1NC(=O)[C@@H](NC(=O)CNC(=O)[C@@H](N)CCCCN)CSSC[C@@H]2NC(=O)[C@@H]3CSSC[C@H](NC(=O)[C@H](CCC(N)=O)NC(=O)[C@H](CC(C)C)NC(=O)[C@@H]4CCCN4C(=O)[C@H](CCCNC(=N)N)NC2=O)C(=O)N[C@@H](CCCCN)C(=O)NCC(=O)N2CCC[C@H]2C(=O)N[C@@H](CO)C(=O)N2CCC[C@H]2C(=O)N[C@@H](CCCCN)C(=O)N[C@@H](CCC(N)=O)C(=O)N[C@@H](CCCCN)C(=O)N[C@@H](CCCCN)C(=O)N[C@H](C(=O)N[C@H](C(=O)N[C@@H](CCCCN)C(=O)N[C@H](C(=O)O)C(C)C)[C@@H](C)O)CSSC[C@H](NC(=O)[C@H](Cc2c[nH]c4ccccc24)NC(=O)[C@H](CCCCN)NC(=O)CNC(=O)[C@H](CCC(=O)O)NC(=O)[C@H](CCCCN)NC1=O)C(=O)N1CCC[C@H]1C(=O)N[C@@H](CCCCN)C(=O)N[C@@H]([C@@H](C)O)C(=O)N[C@@H](C)C(=O)N1CCC[C@H]1C(=O)N3 — IC50 (Potassium voltage-gated channel subfamily A member 2 (KCNA2, Homo sapiens, UniProt P16389); ion current, inhibitor, patch clamp; pH 7.4): 171 nM
C#CCN(Cc1ccc2nc(C)[nH]c(=O)c2c1)c1ccc(C(=O)N[C@@H](CC(=O)NCC(=O)O)C(=O)O)cc1 — IC50 (4'-phosphopantetheinyl transferase PptT; enzyme activity, inhibitor, FP): 59 nM
CC[C@H](C)[C@H](NC(=O)[C@@H]1CCCN1C(=O)[C@H](CCC(=O)O)NC(=O)[C@H](CCSC)NC(=O)CNC(=O)[C@H](CC(N)=O)NC(=O)CNC(=O)CNC(=O)[C@H](CCC(=O)O)NC(=O)CNC(=O)[C@H](CCCNC(=N)N)NC(=O)[C@H](CCC(N)=O)NC(=O)[C@H](Cc1ccc(O)cc1)NC(=O)[C@H](CC(C)C)NC(=O)[C@H](CCCCN)NC(=O)[C@@H]1CCCN1C(=O)[C@H](CCC(N)=O)NC(=O)[C@H](C)NC(=O)[C@@H](NC(=O)[C@H](CCC(=O)O)NC(=O)[C@H](C)NC(=O)[C@H](CCC(=O)O)NC(=O)[C@@H](NC(=O)[C@@H]1CCCN1C(=O)[C@@H](N)CCCCN)C(C)C)C(C)C)C(=O)N1CCC[C@H]1C(=O)N[C@@H](CCC(=O)O)C(=O)N[C@@H](CC(=O)O)C(=O)N[C@@H](Cc1ccc(O)cc1)C(=O)N[C@@H](CC(C)C)C(=O)N[C@@H](CCC(N)=O)C(=O)O — Ki (F2 gamma-thrombin; pH 8): 59800 ± 3210 nM
CN(Cc1ccc2nc(CF)[nH]c(=O)c2c1)c1ccc(C(=O)NC(CCC(=O)O)C(=O)O)s1 (stereo not shown) — IC50 (4'-phosphopantetheinyl transferase PptT; enzyme activity, inhibitor, FP): 75 nM
CC[C@H](C)[C@H](NC(=O)[C@H](CCCNC(=N)N)NC(=O)[C@@H]1CCCN1C(=O)[C@H](C)NC(=O)[C@H](CC(N)=O)NC(=O)[C@H](CCCNC(=N)N)NC(=O)[C@H](CCC(N)=O)NC(=O)[C@H](CC(N)=O)NC(=O)[C@H](CCC(N)=O)NC(=O)[C@@H]1CCCN1C(=O)CNC(=O)[C@H](CC(N)=O)NC(=O)[C@H](CC(=O)O)NC(=O)[C@H](CO)NC(=O)[C@@H](N)CCSC)C(=O)N[C@H](C(=O)N[C@@H](Cc1ccccc1)C(=O)NCC(=O)NCC(=O)N1CCC[C@H]1C(=O)N[C@@H](CO)C(=O)N[C@@H](CC(=O)O)C(=O)N[C@@H](CO)C(=O)N[C@H](C(=O)NCC(=O)O)[C@@H](C)O)[C@@H](C)O — Kd (Ras GTPase-activating protein-binding protein 1 (G3BP1, Homo sapiens, UniProt Q13283); binding): 8500 nM
Cc1nc(=O)c2cc(CN(C)c3ccc(C(=O)NCc4cccc(C(=O)O)c4)s3)ccc2[nH]1 — IC50 (4'-phosphopantetheinyl transferase PptT; enzyme activity, inhibitor, fluorescence polarization; enzyme 100 nM): 332 nM
CCN(CC)C(=O)[C@@H]1C=C2c3cccc4c3c(cn4C(=O)c3ccco3)C[C@H]2N(C)C1 — Ki (5-hydroxytryptamine receptor 2B (HTR2B, Homo sapiens, UniProt P41595); ligand displacement, radioligand): 9.8 nM

Excerpt of the above:
CC[C@H](C)[C@H](NC(=O)[C@@H]1CCCN1C(=O)[C@H](CCC(=O)O)NC(=O)[C@H](CCSC)NC(=O)CNC(=O)[C@H](CC(N)=O)NC(=O)CNC(=O)CNC(=O)[C@H](CCC(=O)O)NC(=O)CNC(=O)[C@H](CCCNC(=N)N)NC(=O)[C@H](CCC(N)=O)NC(=O)[C@H](Cc1ccc(O)cc1)NC(=O)[C@H](CC(C)C)NC(=O)[C@H](CCCCN)NC(=O)[C@@H]1CCCN1C(=O)[C@H](CCC(N)=O)NC(=O)[C@H](C)NC(=O)[C@@H](NC(=O)[C@H](CCC(=O)O)NC(=O)[C@H](C)NC(=O)[C@H](CCC(=O)O)NC(=O)[C@@H](NC(=O)[C@@H]1CCCN1C(=O)[C@@H](N)CCCCN)C(C)C)C(C)C)C(=O)N1CCC[C@H]1C(=O)N[C@@H](CCC(=O)O)C(=O)N[C@@H](CC(=O)O)C(=O)N[C@@H](Cc1ccc(O)cc1)C(=O)N[C@@H](CC(C)C)C(=O)N[C@@H](CCC(N)=O)C(=O)O — Ki (F2 gamma-thrombin; pH 8): 59800 ± 3210 nM
CN(Cc1ccc2nc(CF)[nH]c(=O)c2c1)c1ccc(C(=O)NC(CCC(=O)O)C(=O)O)s1 (stereo not shown) — IC50 (4'-phosphopantetheinyl transferase PptT; enzyme activity, inhibitor, FP): 75 nM
